Experimental data from different studies.
Numbered parts are unrelated; each lists some results of a single study. Substitutions count along the parent as printed.

Block 1 — method: protein binding microarray; molecule type: double-stranded DNA, one strand shown; sample: in vitro; concentration: not given; relative to: not given; direction: higher = stronger binding
Target: Histone acetyltransferase KAT6A, both winged helices, GST fusion (KAT6A, Homo sapiens, UniProt Q92794, residues 1-181)
Notes: 8-mer, flanks averaged, mean of 2 arrays, mostly near background
Residues (chain): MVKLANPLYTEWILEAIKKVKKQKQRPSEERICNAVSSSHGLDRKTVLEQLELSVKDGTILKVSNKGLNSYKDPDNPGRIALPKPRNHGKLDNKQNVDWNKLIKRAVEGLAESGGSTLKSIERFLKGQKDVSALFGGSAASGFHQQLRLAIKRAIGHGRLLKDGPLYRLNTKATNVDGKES
| Sequence | E-score |
| --- | --- |
| CCGATTTA | 0.109 |
| ACTCATAC | -0.054 |
| AGAGCCTA | -0.199 |
| ACGATCGC | 0.241 |
| AGAAATTG | -0.14 |
| CCACCACG | -0.0239 |
| AGGAAGGG | -0.229 |
| AATCTAAG | -0.0681 |
| CAATACCG | 0.17 |
| CGATAATC | 0.075 |
| AAATCGAA | -0.0919 |
| CTGGGGAA | -0.185 |
| AGCTTGTA | -0.175 |
| CTATATAC | -0.0609 |
| CCTAGTAC | -0.0553 |
| CGCATACG | 0.274 |
| AGGATTCG | -0.09 |
| AGTAGTCG | 0.0645 |
| ACCCTTCA | -0.154 |
| CGGCGATA | 0.303 |
| CCGTGTAG | 0.116 |
| CCCAAGGC | -0.023 |
| CCAAAACG | -0.0535 |

Block 2 — method: RNA Bind-n-Seq; molecule type: RNA; sample: in vitro; concentration: not given; notes: RNA with constant flanks, ends assumed; relative to: input RNA pool; direction: higher = stronger binding
Target: RING finger protein unkempt homolog, zinc fingers 1-6, GST-SBP tag (UNK, Homo sapiens, UniProt Q9C0B0, residues 30-357)
Chain of UniProt Q9C0B0 (30-357, looked up): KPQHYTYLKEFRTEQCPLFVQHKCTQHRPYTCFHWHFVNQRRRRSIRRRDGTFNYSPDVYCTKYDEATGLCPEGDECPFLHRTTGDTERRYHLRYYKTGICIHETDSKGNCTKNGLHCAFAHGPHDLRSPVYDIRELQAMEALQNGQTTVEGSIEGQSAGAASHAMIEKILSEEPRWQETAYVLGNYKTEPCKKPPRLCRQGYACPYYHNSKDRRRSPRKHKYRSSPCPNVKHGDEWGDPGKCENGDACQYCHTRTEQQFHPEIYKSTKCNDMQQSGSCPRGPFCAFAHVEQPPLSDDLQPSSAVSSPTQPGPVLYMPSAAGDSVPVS
Shared flanks, not repeated: GGGAGUUCUACAGUCCGACGAUC … CAACAGAGGAUUGAGCAUCA
| Sequence | bound/input enrichment [ratio] |
| --- | --- |
| CAAAAGAUCCUGGCUAACUGUUCUUCUCCCUACCAUGUAGAUCUGUUGGGUAUAGCAGACCCCGCGCACUUACUCCUGUUCAAGGAGCACCUCCAUGUCUUCUGGGAUGGACUCCUCUGG | 0.2 |
| GGCACACGGCUUUCUUUCUCUGUGUGUUCGCCUCUUUCUUCUCUUUUAUUUGCCUUAUUCUACCGGAUUUUUGUCCUCUAAGAUUCUACCUGGGAUUUUCCUUUGGAAAAGUUGCUGUGG | 0.549 |
| CUGCCGACUGCAUUUAGUCUGGUCUCUUAACAGUUGCUUUCCUUGUCUGAUUCCCAAGUUCCGCAUUUUCAAAUUCAGAGUUCACAGAACACUUCUGGGUCUAAGCUUCCUUAAGGGGGA | 0.272 |
| AAUUUGUUGUCAGCAAGCAAAUUAUAUAACAAUAUCACCUUUGAAGAACUUGGAGCUCUUUCCGAGAUCCCUGCAGCUAAGGCAGAAAAGAUAGCAUCUCAGAUGAUAACGGAAGGACGC | 0.398 |
| UAAAUGCCCUGAGAAAAGCAUAAGAUUAAAAACAAUCCAUGGGCUAUUUGUGUUACUGCUACCGAAAGGUUUUUUAAAAAGCUAUCUUUCAUAUUGAAUUUUUGAAUUCUUAAAAAGCCU | 0.219 |
| GUCAGGACCUGGGUGGGUGGUCCUGAAUGCUUGGCUGGUGGGUUUGGGAGGAUGUGGAGCUACCGAGGCCUACUCUGCUUCCUAGGUCUCGAAGUCCUCGGAAGCCAAUAGACUCCCUUC | 0.309 |
| UGAGUUCUAUUAUUGAUUAAAGAAGACAGAUUUACAUUCAGGAUUCUGGUGUCUGGAGGCUCCGCCUCAAAGCCAGUUUUGAUGACUUAGAAGGCAAUCUAUGUCACUGUCCCCACAAAG | 0.206 |
| GGAAGGACUGCGCUGCAGGUUAUGAAACUUGGAAAUCCCGAGAUUGCCAGGAGACUGCUACUCCGAGGUGCUAAUCCCGAUUUGAAAGACCGAACUGGUUUCGCUGUCAUUCAUGAUGCG | 0.143 |
| ACAAGUGAAGAGGGAUCUGGAGACUUGGAUAAUCUAGAUGCUAUUCUUGGUGAUCUGACCCGUUCUGACUUUUACAAUAAUUCCAUAUCCUCAAAUGGUAGUCAUCUGGGGACUAAGCAA | 0.117 |
| GAAUAUAUAGAUCAAGGUCGAAAUCCCCAGCUCUACACCAAAGAGUGCCUGGAGAGGGCUCCCGCUAAAAAUGAGCAAGUUAAAGGCAAGAUCGACACCAUGAAGAAAUUUAAAAGCCUG | 0.38 |
| CACUGGAGACUGAGCAAAAGGAAAUGUGAAACGAACAACAUGAUGGAAUAUGUCAUCCUCACCGAAUUUUUACCAAAGACACCGAUUUUUCGACCAGAUUAGCAUUUGCUUUAUUUAUAG | 2.7 |

Block 3 — target: CCNB3, cyclin fold, Cln2 fusion (human); method: yeast growth competition, sequencing; sample: yeast; notes: weak parent motif; relative to: not given; direction: higher = stronger binding
Parent: INSM1 docking peptide (human); PKAIRKLHFEDEV
| Substitution | normalised enrichment score |
| --- | --- |
| PCAIRKLHFEDEV [K2C] | 0.81 |
| PKRIRKLHFEDEV [A3R] | 0.164 |
| PKAARKLHFEDEV [I4A] | 0.235 |
| PKAIRKHHFEDEV [L7H] | -0.0335 |
| PKAIRKLHFEDAV [E12A] | 0.685 |
| PKLIRKLHFEDEV [A3L] | 0.0533 |
| PKAIRKLHFEDLV [E12L] | 0.74 |
| PKAIRKLFFEDEV [H8F] | 0.147 |
| PKAIIKLHFEDEV [R5I] | -0.299 |
| PKAIWKLHFEDEV [R5W] | 0.25 |
| PEAIRKLHFEDEV [K2E] | 0.19 |
| PKAIDKLHFEDEV [R5D] | -0.0619 |
| PKAIRKLHNEDEV [F9N] | -0.0895 |
| PKAIRKLHVEDEV [F9V] | 0.116 |
| PKVIRKLHFEDEV [A3V] | 0.841 |
| PLAIRKLHFEDEV [K2L] | 0.507 |

Block 4 — method: RNA Bind-n-Seq; molecule type: RNA; sample: in vitro; concentration: 365 nM; relative to: no-protein control; direction: higher = stronger binding
Target: RNA binding protein fox-1 homolog 2, RRM domain, GST-SBP tag (RBFOX2, Homo sapiens, UniProt O43251-10, residues 100-194)
Notes: natural RNA segment, single round, ends assumed
Shared flanks, not repeated: GGGAGUUCUACAGUCCGACGAUC … UGGAAUUCUCGGGUGCCAA
Target sequence (chain): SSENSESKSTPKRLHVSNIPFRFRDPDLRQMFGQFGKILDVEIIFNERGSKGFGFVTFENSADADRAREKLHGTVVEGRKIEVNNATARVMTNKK
| Sequence | RBNS enrichment (R) |
| --- | --- |
| UGUCAACUGUGUGGCUUGGAAUCCCAAGGAGCCAGGGCUCCUGGCCUCUUGUAGUGAUGAUGGGGAGGUAGCCUUCUGGGAGUAUCACCAGCCUGCAGGUCUCUGAGCUA | 0.597 |
| CUGGGCCCCUAACCUGUCAGUUCACCCAUCUAGACCAGAGUCUGUAGCCAGACCUGGCCCACUGCCUUUUUUGUAAGGCCCUUGAGAGCCUUCCUUCCUUUCUCUUUCUU | 0.767 |
| GGAUAGCCAGGAAGUUUCUAGUUUGUGUAACCUAGAAGGGUCACUUUAAUAAAAAUUGUUAUGAACUAUAGUAUUUUAGAUGAUGAGUGACUUAUUUUAAUUCCACUUUA | 0.302 |
| UAAACUUACACUAAAGGAUUCAUCAAAUCAUCUUGUUCAGAUGGCUCAGGAUUGUAUUUAUUUUGCUUACCCCGUGCUCUUGGGUUCUAUAGUAUUUCUAUAAUUAUGUA | 0.378 |
| AACUUCAGUUUUGCCAAGUGCAAUGGUGUUGCCUUCUUUAAAAAAUGCCGUUUUCUUACACUACCAGUGGAUGUCCAGACAUGCUCUUAGUCUACUAGAGAGGUGCUGCC | 0.504 |
| GGGAGCUCUCUCCCUCAUGCCUGUGGGUAUUUCUGAAAUGAAGCUGCGCCCUGUUCUGUCCUUUCCCAAAGCCCCCUUCUGCCCAUAGCAUGGAUCCAACCCAGGUCACA | 5.19 |
| AUAUCUCCCAUCAUAAGAGGCUGCAGCUGGGCUGUGCCUCCCAGUAAAACAGUCACGAACCAAACCUGUGCAGUCCCUUGUUCCAGAUCACCUGGAACUGGAUUGGGAAG | 0.304 |
| CCUGUGGAUCCCGUCAGGAGGGACUUAGUGGCUCUGCCGCCAGUGAGACUUCCCGCCGGCAGCUGUGCGCACCAAAGACUCGGGAGAACUGGAAAGGCUGUCUGGGGUCU | 0.251 |
| GUGCCAGGGCUGUGGGAGGGGCAAGCUACGGCCUGGGCUAGGUGAGCUGCCUCUGCCCCUGGGCAAGGAAGCGAGGCCCUCUGGGAGGAGGGUGCUUAGCUCCAGAGCAG | 0.518 |
| AGUAUAUAGAUAUAUAAAGUACUGUAGUUUACAGCUAGGCCUUGAGAUAUCUUUUUAGGAUCUGUUAGGAAUAAGAUUGAUAUUGUAUUGUGUGUAACCUGCACAAUGUG | 0.449 |
| CCCCCUCCAUCACCCCCAAGACCCCUCUUCUCCCUCUUCUUAGCCUGCUGUGUGAGAGAGGAGCCAAGAGGCAGGUGCUUGCCGACGGCCGCAUCCUCCUUCCCAGGUGU | 0.839 |
| GUUCAAGUGAGCAAGCCAUGCCCCCAGCUGCAGUCAGAGUUGAGACCGGCUCUGUGGCUCGUAGCUGGUUCUCUGCUUGCUAGAACAUUCUAACAUUUACACUUUUGUUA | 0.39 |

Repeated from above (block 4):
| Sequence | RBNS enrichment (R) |
| --- | --- |
| AACUUCAGUUUUGCCAAGUGCAAUGGUGUUGCCUUCUUUAAAAAAUGCCGUUUUCUUACACUACCAGUGGAUGUCCAGACAUGCUCUUAGUCUACUAGAGAGGUGCUGCC | 0.504 |
| GGGAGCUCUCUCCCUCAUGCCUGUGGGUAUUUCUGAAAUGAAGCUGCGCCCUGUUCUGUCCUUUCCCAAAGCCCCCUUCUGCCCAUAGCAUGGAUCCAACCCAGGUCACA | 5.19 |
| AUAUCUCCCAUCAUAAGAGGCUGCAGCUGGGCUGUGCCUCCCAGUAAAACAGUCACGAACCAAACCUGUGCAGUCCCUUGUUCCAGAUCACCUGGAACUGGAUUGGGAAG | 0.304 |
| CCUGUGGAUCCCGUCAGGAGGGACUUAGUGGCUCUGCCGCCAGUGAGACUUCCCGCCGGCAGCUGUGCGCACCAAAGACUCGGGAGAACUGGAAAGGCUGUCUGGGGUCU | 0.251 |
| GUGCCAGGGCUGUGGGAGGGGCAAGCUACGGCCUGGGCUAGGUGAGCUGCCUCUGCCCCUGGGCAAGGAAGCGAGGCCCUCUGGGAGGAGGGUGCUUAGCUCCAGAGCAG | 0.518 |
| AGUAUAUAGAUAUAUAAAGUACUGUAGUUUACAGCUAGGCCUUGAGAUAUCUUUUUAGGAUCUGUUAGGAAUAAGAUUGAUAUUGUAUUGUGUGUAACCUGCACAAUGUG | 0.449 |
| CCCCCUCCAUCACCCCCAAGACCCCUCUUCUCCCUCUUCUUAGCCUGCUGUGUGAGAGAGGAGCCAAGAGGCAGGUGCUUGCCGACGGCCGCAUCCUCCUUCCCAGGUGU | 0.839 |
| GUUCAAGUGAGCAAGCCAUGCCCCCAGCUGCAGUCAGAGUUGAGACCGGCUCUGUGGCUCGUAGCUGGUUCUCUGCUUGCUAGAACAUUCUAACAUUUACACUUUUGUUA | 0.39 |
